Published values from different studies.
Every numbered part comes from another study and shows a few of its results, in no order. Positions count from the first letter of the parent shown.

Series 1 — technique: RNA Bind-n-Seq; molecule type: RNA; medium: in vitro; concentration: 365 nM; baseline: no-protein control; reading: higher = stronger binding
Target: RNA binding protein fox-1 homolog 2, RRM domain, GST-SBP tag (RBFOX2, Homo sapiens, UniProt O43251-10, residues 100-194)
Setting: natural RNA segment, single round, ends assumed
Construct (chain): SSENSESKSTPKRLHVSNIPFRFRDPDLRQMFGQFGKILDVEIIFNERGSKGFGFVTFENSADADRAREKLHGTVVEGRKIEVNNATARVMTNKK
| Strand | RBNS enrichment (R) |
| --- | --- |
| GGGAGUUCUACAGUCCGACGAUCCUCUAUGUUAAAAUGCCAAAAAUGACCCAGUCUGUCGCUUUCCUCCGCCCCAGCGCUUCACAGCCGCUUCUGGCUUUGCAAGGUGUCUGUCUCGGCCAGUGCCGUGGCCUUGGAAUUCUCGGGUGCCAA | 0.327 |
| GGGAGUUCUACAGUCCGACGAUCCAUCAGAUCUUGUGAAACUUAUUCACUAUCACAAGAAUAGCAUGGGAAAGACUGGCCCCCAUGAUUCAAUUACCUCCCCUUGGGUCUCUCCCACAACACGUGGGAAUUCUUGGAAUUCUCGGGUGCCAA | 0.499 |
| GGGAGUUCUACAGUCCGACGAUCGGGUUCCAGGUAAGAGAAACAGAGACCCCUACCCCAGCUGUUUACUACCUGGUGGGCUGGUUGAGGAUGGGAGAGAGUUGGCUGUGUGCCAUGUUCAGAUGUAUGGUGGAUGGAAUUCUCGGGUGCCAA | 0.544 |
| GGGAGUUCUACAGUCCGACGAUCCCAUCCUCUCAUCUUGGGUCCCAGCCAGGCCCCCCCAAAACCAAAGCCCCCUCAAGUCCUGGGGUCCCAGCCUGUGCCCCCAGCUUCCUGCCCACCCAGCCCUGAGCAUUUGGAAUUCUCGGGUGCCAA | 1.05 |
| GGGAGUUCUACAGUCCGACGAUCCAGAAGUGUGACCUCAGUUAUAUAUACAUCCCAGCUCUGCCCAGUAUCCCUCACUUACCAAGAGGAGAAUGGAGGGAUAAUGGACUCACCCUAGCCUAGGGCUUCGACAUUGGAAUUCUCGGGUGCCAA | 0.389 |
| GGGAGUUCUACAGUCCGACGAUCCCUCUGUAGGAACUUAGGUUAAUAGUAAUAUUAACAACAAGACAUGCUAAGACUCUUUGGUAAUCUAGAAGAGCUUCUAGUGAGAACCUGAUGGUAGGUCGUGGGGCCUGUGGAAUUCUCGGGUGCCAA | 0.311 |
| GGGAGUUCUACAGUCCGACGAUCUGCUCCCUCUUGUCUUGAAACAGUUUGAGUAAGAAAGUCUUGCUGUAAAUGCUGCCCUCUGCCGCCUUUGUUUUGAGAUGCAGUUUAAACUCCCUCUGGCUGCUGCUGCUUGGAAUUCUCGGGUGCCAA | 1.06 |
| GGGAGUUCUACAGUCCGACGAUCGUUUUAACAGGUCAUGUACUACGUUGUUGUUUUCAUUUCUGUUAUAAGUAAAACUAAAAGCACAGAAUGGUGGGAAAGGGGCUAUAAUGUGGUUCAUUAAUAAUGUUAGCUGGAAUUCUCGGGUGCCAA | 4.32 |

Series 2 — technique: RNA Bind-n-Seq; molecule type: RNA; medium: in vitro; concentration: not given; baseline: input RNA pool; reading: higher = stronger binding
Target: RING finger protein unkempt homolog, zinc fingers 1-6, GST-SBP tag (UNK, Homo sapiens, UniProt Q9C0B0, residues 30-357)
Setting: RNA with constant flanks, human and mouse sites, ends assumed
Construct (chain): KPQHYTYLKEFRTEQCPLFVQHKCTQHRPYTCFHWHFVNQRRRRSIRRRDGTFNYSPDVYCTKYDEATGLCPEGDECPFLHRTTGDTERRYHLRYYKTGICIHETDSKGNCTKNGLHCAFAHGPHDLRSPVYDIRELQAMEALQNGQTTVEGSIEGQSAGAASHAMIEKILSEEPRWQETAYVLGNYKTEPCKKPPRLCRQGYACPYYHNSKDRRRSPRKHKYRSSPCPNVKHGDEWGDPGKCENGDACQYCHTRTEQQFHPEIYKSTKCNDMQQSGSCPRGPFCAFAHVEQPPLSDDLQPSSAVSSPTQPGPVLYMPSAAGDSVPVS
| Strand | bound/input enrichment |
| --- | --- |
| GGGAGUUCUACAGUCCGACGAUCAUGAUUACUGUAGAUAUUAUUCCUUCUGGUUGGAAUUCAACUGAUGGGAAAAAUGAUAAAGCUAAAAGUGCACCUUCAAGAGACCCAGAAAAACUUCAGAAAAUCAAAGAAAGCCUCCUUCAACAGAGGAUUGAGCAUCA | 0.158 ratio |
| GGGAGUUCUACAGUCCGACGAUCACUGGUUUUGGAUUAGGAAUUGUUUUCUCACUUACCUUCUUUAAAAGAAGAAUGUGGCCAUUAGCCUUCGGUUCUGGCAUGGGAUUAGGAAUGGCUUAUUCCAACUGUCAGCAUGAUUUCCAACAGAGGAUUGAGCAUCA | 0.622 ratio |
| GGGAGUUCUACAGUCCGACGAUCUCUGUGGUGGUGAGGCGGCGGUCACCCCGUCCUAGCCCCGUGCCAAAACCUAGUCCUCCACUUUCCAGCACAUCCCAGAUGGGCUCAACUCUGCCGAGUGGUGCCGGGUAUCAGUCUGGGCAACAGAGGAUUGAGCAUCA | 0.0852 ratio |
| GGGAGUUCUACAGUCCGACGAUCGGGCCGCAGACACGUAGGCUGGGGUGAGGAGUGUCUGCUGUCACCCUCUACUCUCCAGCUUUAGUCUUAUAAAUGUAGUGAUAGGAUUCCUUGUUGCUUGGUCCCCAAAGCCUUAUACUUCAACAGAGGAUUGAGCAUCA | 1.11 ratio |
| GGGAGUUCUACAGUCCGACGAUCACAGGGAAUGGGCGGCGGCUCCACCUGGGGAUUCCUGAGGCCGUGUUUGUGGAAGAUGUAGAUUCCUUCAUGAAACAGCCUGGGAAUGAGACUGCAGAUACAGUAUUAAAGAAGCUGGAUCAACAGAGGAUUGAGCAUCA | 0.278 ratio |
| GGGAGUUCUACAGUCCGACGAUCAUUCUUGCAGCCUGCCGACCUUUGACCAUAACGGAAUUAUAUCACGCAGUAUGGACCAAAAACAUGUCGUUAACUUUGGAAGAUUUUCAACGCAAGUUAGAUAUCCUCUCCAAACUUCUUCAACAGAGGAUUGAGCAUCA | 0.0973 ratio |
| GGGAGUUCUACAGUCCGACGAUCGAGAAAAUCAAGAUCAAGCCAGCCCCGUACCCCAUGGGAAGCAGCCAUGCUUCCGCCAGUAGCAUCAGCUUUAACCCCAGCCCUGAGGAGCCGGCCUAUGAUGGCCCAAGCACCAGCAGUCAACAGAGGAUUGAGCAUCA | 0.238 ratio |
| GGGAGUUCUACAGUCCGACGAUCGACUGGGAAAUGUCACAGUCUUCAAUAAAGAGUUCUAUCUGUCUUCUACGCGGGAAAAUCUAUGAUGCUCUAGAUAACCGAACCCUGGCUACCUACAGCUACAAAGAAGCUUUGAAGCUUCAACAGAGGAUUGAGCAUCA | 0.291 ratio |

Series 3 — technique: DHFR PCA, deep sequencing; medium: yeast; with: (+)-ABA 710 µM; baseline: wild-type fitted maximum; reading: higher = stronger binding
Target: ABI1, truncated, D143A, DHFR fusion (Arabidopsis thaliana)
Setting: methotrexate growth selection, single substitutions
Parent: PYL1, truncated, DHFR fusion (Arabidopsis thaliana); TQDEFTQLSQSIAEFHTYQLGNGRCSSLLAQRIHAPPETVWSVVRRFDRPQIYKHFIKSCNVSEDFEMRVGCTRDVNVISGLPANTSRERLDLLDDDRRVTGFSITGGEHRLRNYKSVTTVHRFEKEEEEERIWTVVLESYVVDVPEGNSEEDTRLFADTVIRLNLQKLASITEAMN; partner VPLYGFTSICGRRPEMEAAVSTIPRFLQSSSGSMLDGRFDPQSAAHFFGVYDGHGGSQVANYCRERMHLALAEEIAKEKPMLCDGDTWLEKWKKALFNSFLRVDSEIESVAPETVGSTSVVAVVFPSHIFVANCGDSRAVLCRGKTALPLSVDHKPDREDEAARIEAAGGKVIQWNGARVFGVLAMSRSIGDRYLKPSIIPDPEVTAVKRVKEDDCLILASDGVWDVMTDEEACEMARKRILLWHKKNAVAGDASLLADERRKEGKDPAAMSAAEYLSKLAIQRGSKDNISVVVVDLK
| Substitution | relative binding score [%] |
| --- | --- |
| D48N | 94.6 |
| V100Y | 85.6 |
| V161M | 93.7 |
| R69D | 102 |
| V76I | 108 |
| E128V | 106 |
| Y18E | 96.2 |
| D95N | 104 |
| R111D | 53.3 |
| G107Y | 76.1 |
| F66A | 99.9 |
| C60T | 98.3 |
| I57P | -9.97 |
| A170N | 79.6 |
| Q10Y | 94.2 |
| G107F | 58.2 |
| V143Q | 81.7 |
| Q31V | 75.4 |
| S80T | 95.9 |
| T17G | 91.9 |
| G21Q | 97.6 |
| I33H | -17.2 |
| V78Y | 54.7 |
| G107W | 60.5 |
| R88V | 103 |

Series 4 — target: UBE2I UBC core domain (UniProt P63279); technique: yeast two-hybrid; medium: yeast; setting: mostly zero background; baseline: not given; reading: higher = stronger interaction
B1: RNF115 RING domain (UniProt Q9Y4L5); chain TQEQVDMGLECPVCKEDYTVEEEVRQLPCNHFFHSSCIVPWLELHDTCPVCRKSLNGEDSTR
B2: TRIM28 RING domain (UniProt Q13263); chain GAEALELLEHCGVCRERLRPEREPRLLPCLHSACSACLGPAAPAAANSSGDGGAAGDGTVVDCPVCKQQCFSKDIVE
B3: TRIM74 RING domain (UniProt Q86UV6); chain SLLELEDWLQCPICLEVFKESLMLQCGHSYCKGCLVSLSYHLDTKVRCPMCWQVVDGSSSLP
B4: TRIM68 RING domain (UniProt Q6AZZ1); chain LVEAIVEEVACPICMTFLREPMSIDCGHSFCHSCLSGLWEIPGESQNWGYTCPLCRAPVQPRNLRP
B5: RNF10 RING domain (UniProt Q8N5U6); chain VRICSHEVPSCPICLYPPTAAKITRCGHIFCWACILHYLSLSEKTWSKCPICYSSVHKKDLKS
B6: RNF7 RING domain (UniProt Q9UBF6); chain AICRVQVMDACLRCQAENKQEDCVVVWGECNHSFHNCCMSLWVKQNNRCPLCQQDWVVQRIGK
| Molecule | lacZ reporter activity |
| --- | --- |
| B1 (RNF115 RING domain) | 0 |
| B2 (TRIM28 RING domain) | 0 |
| B3 (TRIM74 RING domain) | 0 |
| PLRRLQEEKLCKICMDRHIAVVFIPCGHLVTCKQCAEAVDRCPMCSAVIDFKQRVF (BIRC8 RING domain (UniProt Q96P09)) | 0 |
| B4 (TRIM68 RING domain) | 0 |
| B5 (RNF10 RING domain) | 0 |
| SNNDLASLFECPVCFDYVLPPILQCQSGHLVCSNCRPKLTCCPTCRGPLGSIRNLA (SIAH1 RING domain (UniProt Q8IUQ4)) | 0 |
| MEEMEEELKCPVCGSFYREPIILPCSHNLCQACARNILVQTPESESPQSHRAAGSGVSDY (TRIM9 RING domain (UniProt Q9C026)) | 0 |
| B6 (RNF7 RING domain) | 0 |

A few entries again (series 3):
| Substitution | relative binding score [%] |
| --- | --- |
| A170N | 79.6 |
| Q10Y | 94.2 |
| G107F | 58.2 |
| V143Q | 81.7 |
| Q31V | 75.4 |
| S80T | 95.9 |
| T17G | 91.9 |
